Assay results collected from several papers.
Each numbered part is a random draw from the data of one study; scales do not carry over between parts. Substitutions count along the parent as printed.

Study 1
Target: Histone acetyltransferase KAT6A, winged helix 2, GST fusion (KAT6A, Homo sapiens, UniProt Q92794, residues 85-181)
Method: protein binding microarray
Form: double-stranded DNA, one strand shown
Sample: in vitro
Tested at: not given
Notes: 8-mer, flanks averaged, mean of 2 arrays, mostly near background
Reference: not given
Reading: higher = stronger binding
Target sequence (chain): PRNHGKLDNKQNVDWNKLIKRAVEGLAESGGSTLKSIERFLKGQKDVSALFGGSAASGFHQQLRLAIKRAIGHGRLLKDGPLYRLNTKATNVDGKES
| Sequence | E-score |
| --- | --- |
| CCGGAAAG | 0.0483 |
| AATCGCAC | 0.0422 |
| CAATCAGA | -4e-05 |
| ATAGGCAT | -0.118 |
| GCCCGGAC | 0.0489 |
| CGTATTGA | -0.138 |
| TACATATA | 0.0517 |
| AGCATGCC | 0.0101 |
| ACACTAAG | -0.0697 |

Study 2
Target: CCNE1, cyclin fold, Cln2 fusion (human)
Method: yeast growth competition, sequencing
Sample: yeast
Notes: strong parent motif
Reference: not given
Reading: higher = stronger binding
Starting sequence: E2F1 docking peptide (human); PPVKRRLDFETDH; partner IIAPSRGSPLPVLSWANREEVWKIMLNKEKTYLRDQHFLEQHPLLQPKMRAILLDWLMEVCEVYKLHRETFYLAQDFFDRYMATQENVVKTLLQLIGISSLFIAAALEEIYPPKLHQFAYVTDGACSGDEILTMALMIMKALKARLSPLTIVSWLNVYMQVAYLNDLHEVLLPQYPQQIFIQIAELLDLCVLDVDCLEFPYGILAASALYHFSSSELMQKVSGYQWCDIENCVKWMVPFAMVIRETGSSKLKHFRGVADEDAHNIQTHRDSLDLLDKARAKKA
| Substitution | normalised enrichment score |
| --- | --- |
| PPVKRDLDFETDH [R6D] | 0.434 |
| PPVKRRLLFETDH [D8L] | 6.19 |
| PPVKRRLDFETMH [D12M] | 6.28 |
| PPVKRRLDEETDH [F9E] | 0.658 |

Study 3
Target: Interferon regulatory factor 5, full length, phosphomimetic (IRF5, Homo sapiens, UniProt Q13568-2, residues 1-514, S451D/S453D/S456D/S462D)
Method: protein-binding microarray
Form: double-stranded DNA, one strand shown
Sample: in vitro
Tested at: 940 nM top
Notes: 60-bp whole probe
Together with: salmon DNA 0.4 mg/ml
Reference: random background probes
Reading: higher = stronger binding
Shared flanks, not repeated: GCCTAGCAC … GTCTTGATTCGCTTGACGCTGCTG
| Sequence | fitted relative affinity |
| --- | --- |
| GACGGTTTCGGACTAGGGACGTGCTAG | 6.79 z-score |
| GACGAACTGAGTCTCGCGACGTGCTAG | -0.476 z-score |
| GACGGTTTCCTTATCCTGAGGTGCTAG | 1.07 z-score |
| TTAGGTTTTGGGTATCGGTTAGTGCTA | 4.54 z-score |
| TTAGGTTTCAACACTGGGTTAGTGCTA | 2.55 z-score |
| GACGGACTGGGGCTTCGGGACGTGCTA | -0.687 z-score |
| TCACCTTTGTTTTTTTCACTGTGCTAG | 1.48 z-score |

Single results of other studies
| Substance | target | assay | system | conditions | scale | quantity | result |
| --- | --- | --- | --- | --- | --- | --- | --- |
| PhoQ, residues 284 288 289 292 302 303 SLSLLA | PhoP, residues 12 14 15 18 19 NQFFI (Escherichia coli, UniProt P23836) | Sort-seq, refers to: YFP reporter | E. coli | PhoQ-PhoP variant library, together with: 10 µM Mg2+ | reference: high Mg2+ state, higher = stronger signaling | fold induction | 11.2 |

A few entries again (study 1):
| Sequence | E-score |
| --- | --- |
| TACATATA | 0.0517 |
| AGCATGCC | 0.0101 |
| ACACTAAG | -0.0697 |
